Results of several laboratories.
A part holds a random share of what one study measured.

Set 1
Target: Histone acetyltransferase KAT6A, both winged helices, GST fusion (KAT6A, Homo sapiens, UniProt Q92794, residues 1-181)
Method: protein binding microarray
Form: double-stranded DNA, one strand shown
Medium: in vitro
Concentration: not given
Setting: 8-mer, flanks averaged, mean of 2 arrays, mostly near background
Relative to: not given
Reading: higher = stronger binding
Construct (chain): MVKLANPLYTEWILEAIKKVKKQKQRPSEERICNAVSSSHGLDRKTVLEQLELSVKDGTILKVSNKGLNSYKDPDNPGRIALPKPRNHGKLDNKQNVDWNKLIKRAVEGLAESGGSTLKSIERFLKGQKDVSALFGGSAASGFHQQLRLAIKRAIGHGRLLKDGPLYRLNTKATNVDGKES
Oligonucleotide | E-score
GCGCCTAA | 0.223
GAATAGCC | -0.0459
GCTGGTAA | -0.0457
AGGCGAAT | -0.0623
AGTATTCG | -0.0389
AAACGGTT | 0.0976
AGGATGAC | -0.0272
CGATTAGA | 0.0884
CGAGTTGA | -0.0568
ATCCGAAG | -0.0981
CAATCTCC | -0.0432
ACGGATTA | 0.222
TATCGCAA | -0.0623
CCACTTCA | -0.195
CCGAGTTC | 0.0402
CAGGTTCA | -0.137
CGTGGTTA | 0.0067
GGACTTAC | -0.0106
AATGAGTG | -0.17
CTGTATTA | 0.032

Set 2
Target: Fragile X messenger ribonucleoprotein 1, C-terminal low-complexity region (Fmr1, Mus musculus, UniProt P35922)
Method: RNA Bind-n-Seq
Form: RNA
Medium: in vitro
Concentration: 200 nM
Setting: whole 134-nt RNA, ends assumed
With: 150 mM KCl
Relative to: input library
Reading: higher = stronger binding
Oligonucleotide | log2 enrichment
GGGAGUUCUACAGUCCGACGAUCUGGCCCUGGUGGCAUGCGGGGAGGAAGAGGUGGCCUCAUGGAUCGUGGUGGUCCCGGUGGAAUGUUCAGACGUGGCCGUGGUGGAGACAGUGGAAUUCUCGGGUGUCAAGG | 0.011
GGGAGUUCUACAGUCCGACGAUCACCAUGCAGGUGGGCAUCUUUGGGAAGUGGGGCAAGGGGGGGAUAGGGAGGGGGGUAACACUUUGGGAACAGGUGUUCCCAGGUCGUUUCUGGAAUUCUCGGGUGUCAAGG | 0.802
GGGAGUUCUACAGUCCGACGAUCUAACUUUAGAGGAGGAUCUGAUGGAUAUGGCAGUGGACGUGGAUUUGGGGAUGGCAAUAAUGGGUAUGGAGGAGGACCUGGAGGUGGCAAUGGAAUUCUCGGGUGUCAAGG | 0.0958
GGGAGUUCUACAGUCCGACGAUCGUCCUGUGCUACACAUCGUAUGUACCGAAUCGGGCCCCCGGGGCCCCCGGGCCCCCGGAAAGUAUUAUGUUACGCCGUUCGGAUCUGCACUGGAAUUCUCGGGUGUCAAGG | -1.89
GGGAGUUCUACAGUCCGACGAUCCUCAAGUCCUGUGCUACACAUCGUAUGUACCGAAUCGGUUUUUGGUGGAAAGGAAAGUAUUAUGUUACGCCGUUCGGAUCUGCACUUCCAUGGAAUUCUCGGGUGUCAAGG | -0.131
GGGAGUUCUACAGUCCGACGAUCUCAAGUCCUGUGCUACACAUCGUAUGUACCGAAUCGGUUUGGGUUUGGGGUUUGGAAAGUAUUAUGUUACGCCGUUCGGAUCUGCACUUCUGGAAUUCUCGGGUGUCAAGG | -0.429
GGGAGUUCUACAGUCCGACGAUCAAGUCCUGUGCUACACAUCGUAUGUACCGAAUCGGAAAAGGGGAAAAGGGAAAAGGGAAAGUAUUAUGUUACGCCGUUCGGAUCUGCACUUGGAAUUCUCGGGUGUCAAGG | -0.109
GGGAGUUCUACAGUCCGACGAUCCAAGUCCUGUGCUACACAUCGUAUGUACCGAAUCGGAAAGGGGAAAGGAAAGGGGAAAGUAUUAUGUUACGCCGUUCGGAUCUGCACUUCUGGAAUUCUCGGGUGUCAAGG | 0.137

Set 3
Target: Centromere-binding protein 1, full length, His-tagged (CBF1, Saccharomyces cerevisiae, UniProt P17106, residues 1-351)
Sequence of UniProt P17106 (whole entry, looked up): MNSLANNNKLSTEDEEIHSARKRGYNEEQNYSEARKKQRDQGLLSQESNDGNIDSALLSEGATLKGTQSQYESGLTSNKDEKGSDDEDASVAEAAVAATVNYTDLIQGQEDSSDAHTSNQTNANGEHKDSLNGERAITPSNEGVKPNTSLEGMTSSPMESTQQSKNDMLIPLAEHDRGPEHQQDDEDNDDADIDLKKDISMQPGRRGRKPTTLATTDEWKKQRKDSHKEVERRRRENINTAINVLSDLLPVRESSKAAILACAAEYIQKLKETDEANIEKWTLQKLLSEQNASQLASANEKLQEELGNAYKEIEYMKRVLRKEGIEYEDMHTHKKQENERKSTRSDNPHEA
Method: competition protein-binding microarray
Form: double-stranded DNA, one strand shown
Medium: in vitro
Concentration: 2 µM
Setting: whole 60-bp probe, lowest competitor level
With: Pho4 competitor, 0.05 µM
Reading: higher = stronger binding
Oligonucleotide | fluorescence intensity
TTTCGATCTTCCCATCACGCATAGGGTTTTGAGCTTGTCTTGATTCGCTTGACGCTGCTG | 70 a.u.
TGTTGCCCGCCACTTAGTGTGACAGTCCCAGTCCCAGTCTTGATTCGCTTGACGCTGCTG | 59.7 a.u.
TTTTGAATCCCGTTACACGTGGAATCTTTTTGAATTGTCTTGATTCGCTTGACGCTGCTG | 506 a.u.
TCGGTACGCGGCTCTAGCGTGCTTTTTGGAAGGGCAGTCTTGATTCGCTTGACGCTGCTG | 64.5 a.u.
AGCCGGCAGTTGAATCAGGTGCTTCATCACTGGCATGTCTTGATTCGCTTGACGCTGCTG | 157 a.u.
CAATGCACCCAACTGCATGTGCCATTGTGCATCTACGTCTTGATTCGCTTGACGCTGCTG | 93.7 a.u.
GCCAAGGACCATTACCCCGTGAAGAGATTCTATTGGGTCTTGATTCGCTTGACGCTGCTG | 92.5 a.u.
CTTCTGTAAATTTGGAAGGTGGGTGGACGCGCCCCGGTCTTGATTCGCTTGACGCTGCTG | 72.7 a.u.
CGGGGTTAAGTTTGGGTGGTGGGTGGCTTGCAGCAGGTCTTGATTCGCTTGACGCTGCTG | 59.1 a.u.
GTCTTGTCTCATTGAATGGTGGGTGTCCCCACTTCAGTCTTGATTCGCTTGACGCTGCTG | 76.3 a.u.
CCCGGTATTAGTTTGCACGTTTTCTTTCCTTTGCTTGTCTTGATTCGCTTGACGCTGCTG | 308 a.u.
AAGGTTCAAAACAAGCACATGTGTGTTTTGTGACGGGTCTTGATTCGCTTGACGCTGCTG | 328 a.u.
AAATTACTAAGTTTTCACGTGTGGTACCCCGTATGAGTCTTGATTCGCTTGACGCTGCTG | 604 a.u.
TGTCGTTTGGTTATTGTCGTGGGTATGCTTCTATGTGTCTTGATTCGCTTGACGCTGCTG | 80.1 a.u.

Set 4
Target: Interferon regulatory factor 7, full length, phosphomimetic (IRF7, Homo sapiens, UniProt Q92985, residues 1-503, S101K/S471D/S472D/S475D/S476D/S477D/S483D/S484D/S487D)
Method: protein-binding microarray
Form: double-stranded DNA, one strand shown
Medium: in vitro
Concentration: 250 nM
Setting: 60-bp whole probe
With: salmon DNA 0.4 mg/ml
Relative to: random background probes
Reading: higher = stronger binding
Shared flanks, not repeated: GCCTAGCAC … GTCTTGATTCGCTTGACGCTGCTG
Construct (chain): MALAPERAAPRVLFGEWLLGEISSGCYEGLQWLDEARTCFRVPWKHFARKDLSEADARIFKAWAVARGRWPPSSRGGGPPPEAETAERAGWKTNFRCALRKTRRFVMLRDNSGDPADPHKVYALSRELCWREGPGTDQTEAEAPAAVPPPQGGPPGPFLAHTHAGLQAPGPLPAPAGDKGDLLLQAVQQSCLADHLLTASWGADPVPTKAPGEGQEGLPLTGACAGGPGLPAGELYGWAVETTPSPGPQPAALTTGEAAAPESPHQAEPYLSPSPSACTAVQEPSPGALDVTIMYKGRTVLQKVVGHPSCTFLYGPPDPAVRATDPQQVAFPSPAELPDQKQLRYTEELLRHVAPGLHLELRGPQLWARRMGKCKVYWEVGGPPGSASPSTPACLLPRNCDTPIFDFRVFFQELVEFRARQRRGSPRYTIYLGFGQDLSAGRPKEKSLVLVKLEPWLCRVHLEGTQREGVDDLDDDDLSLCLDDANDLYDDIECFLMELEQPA
Oligonucleotide | log fluorescence [z-score]
GACCATTTCGGGACTGGAGACGTGCTA | 0.825
TTAGATATCTGGACTGGATTAGTGCTA | 0.045
TCAGTTTCCAAATTGTCACTGTGCTAG | 3.62
ACAAGTTTCTCCTTTGTAAAGTGCTAG | 3.06
GACGGTTCCCTTTCCCTGACGTGCTAG | 1.82
TTAGGACTGTTTATCCTTTAGTGCTAG | 0.502
TCATGTGTCTTAAATAGGACTGTGCTA | 0.308
TGGTGCTTAGTATTTTTTTCCGTGCTA | -1.02
TCACATTTTCATTTTGTACTGTGCTAG | 2.23
GACGATATCGGGTTTCGCGACGTGCTA | 0.474
GAGTCTTCCCTTTTAAGTTCGTGCTAG | 1.78
TTAGGTTTCGACTCTGGGTTAGTGCTA | 8
CTAATTTTCAATTCCTGAAAGTGCTAG | 1.6
CTGGTCTCCGGTGTTTCCTAGTGCTAG | 0.661
TATTTTTTTTATTTATAAATGTGCTAG | 1.47

For quick reference, copied from above (set 4):
Oligonucleotide | log fluorescence [z-score]
CTAATTTTCAATTCCTGAAAGTGCTAG | 1.6
TTAGGTTTCGACTCTGGGTTAGTGCTA | 8
GACGATATCGGGTTTCGCGACGTGCTA | 0.474
TATTTTTTTTATTTATAAATGTGCTAG | 1.47
